Experimental data gathered from unrelated publications.
A part holds a random share of what one study measured.

Set 1 — method: competition protein-binding microarray; molecule type: double-stranded DNA, one strand shown; medium: in vitro; tested at: 2 µM; together with: Cbf1 competitor, 0.05 µM; reading: higher = stronger binding
Target: Phosphate system positive regulatory protein PHO4, full length, GST-tagged (PHO4, Saccharomyces cerevisiae, UniProt P07270, residues 1-312)
Setting: whole 60-bp probe, lowest competitor level
Construct (chain): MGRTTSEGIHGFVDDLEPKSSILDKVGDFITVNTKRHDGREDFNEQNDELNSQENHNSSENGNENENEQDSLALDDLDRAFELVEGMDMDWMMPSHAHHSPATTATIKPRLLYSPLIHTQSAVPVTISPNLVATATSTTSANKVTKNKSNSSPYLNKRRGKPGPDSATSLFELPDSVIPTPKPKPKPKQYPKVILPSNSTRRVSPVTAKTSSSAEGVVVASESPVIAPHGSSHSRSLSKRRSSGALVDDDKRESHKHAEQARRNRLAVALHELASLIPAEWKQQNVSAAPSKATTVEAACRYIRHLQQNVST
`ACCACCAAAACCGACCACCGGCGAGCGGATATGCGGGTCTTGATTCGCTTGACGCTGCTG` has a fluorescence intensity of 3650 a.u.
`GTGTGTATACAAAGAAGAGAGGTGTTAGACCAGTATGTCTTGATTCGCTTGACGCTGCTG` gave a fluorescence intensity of 5400 a.u.
`GTCTTGTCTCATTTTCACGTGATTTTCCCCACTTCAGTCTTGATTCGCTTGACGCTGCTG` gave a fluorescence intensity of 8780 a.u.
For `TTGGAAGTTGTATCGCACGTACAGGACCTGAACACTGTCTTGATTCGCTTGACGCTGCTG`, the fluorescence intensity was 6170 a.u.
`AGTTGGTACCTTTTCACCGTGAGTATCGAACTTGAAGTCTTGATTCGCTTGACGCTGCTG` gave a fluorescence intensity of 3410 a.u.
For `CAGAAGCCAAATTGGCGCGTGAGTCTGAGCTGCCTTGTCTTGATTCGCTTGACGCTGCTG`, the fluorescence intensity was 5450 a.u.
`CTTCTGTAAATTTGGATAGTGGGTGGACGCGCCCCGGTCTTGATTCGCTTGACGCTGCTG` gave a fluorescence intensity of 4150 a.u.
The fluorescence intensity of `TGGACATTTAAAGTAACAGTTAATTGAGAATACGGTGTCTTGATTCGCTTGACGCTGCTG` is reported as 3550 a.u.
With `TGTTAATATACCGACATCGTGTTTTGGGGAATGGGTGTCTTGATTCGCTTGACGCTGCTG` the fluorescence intensity was 12600 a.u.
`ACTATGATATTATTCCATGTGTCGCAAAACCAGAAAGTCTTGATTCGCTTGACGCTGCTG` gave a fluorescence intensity of 8260 a.u.
`TGCGCAACAACTTGCTAGGTGGGTGTATGTCTAGAAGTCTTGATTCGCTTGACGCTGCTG` has a fluorescence intensity of 4870 a.u.
For `ACTACTTTGAAGAATTGCGTGATGGATATCAAACTTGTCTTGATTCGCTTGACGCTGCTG`, the fluorescence intensity was 5560 a.u.
`CAGAGAACCGGTAGCCACATGCAAACTAAAACTTTCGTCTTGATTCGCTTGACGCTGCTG` has a fluorescence intensity of 8330 a.u.
For `CTTTCCCGATCTTGGGCCGTGGGTGTAGCACATTTGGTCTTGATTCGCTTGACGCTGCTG`, the fluorescence intensity was 5610 a.u.
The fluorescence intensity of `TGGCCGTATCGCTCCATACGAGCCAATCAGGGCCCCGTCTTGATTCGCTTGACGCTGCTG` is reported as 2250 a.u.
The fluorescence intensity of `CAATCGTCCCGGTGCCACATGAACCAAAACATTTGCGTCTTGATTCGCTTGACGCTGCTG` is reported as 5540 a.u.
`CCTTGAAGCCCGGCGGACGTGTCTGCCGGACCGAAAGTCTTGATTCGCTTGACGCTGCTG` has a fluorescence intensity of 3810 a.u.
With `ACTATGAGAGCTTGGTGCGTGGCCGAAAGGAATAAAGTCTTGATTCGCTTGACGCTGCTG` the fluorescence intensity was 9490 a.u.
For `TGCAAGCTTTAAAGCACCGTGGTGATTCTCGTAATGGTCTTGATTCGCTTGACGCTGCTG`, the fluorescence intensity was 6820 a.u.
`CTAACGAAGGTTTTTCACGTGAGTTACAAGCCAAGTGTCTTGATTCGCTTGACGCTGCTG` gave a fluorescence intensity of 10900 a.u.
`CTTCTGTAAATTTGGTTGGTGGGTGGACGCGCCCCGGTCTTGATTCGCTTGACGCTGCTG` gave a fluorescence intensity of 4710 a.u.
With `CTTTCCCGATCTTGTAGTGTGGGTGTAGCACATTTGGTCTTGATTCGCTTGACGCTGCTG` the fluorescence intensity was 5890 a.u.
The fluorescence intensity of `AAGGTCTATGTTCTTCACGTGATGGAGAGGACTATAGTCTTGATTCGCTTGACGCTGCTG` is reported as 12600 a.u.
`CAAAAACAGCCTCCTCACGTGCCAGCATCTGTCTTGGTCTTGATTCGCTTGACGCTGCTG` has a fluorescence intensity of 16400 a.u.
For `CGTCCTAGTGATTGTCACCCAACTTCCATGAGGAAGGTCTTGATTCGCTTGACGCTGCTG`, the fluorescence intensity was 4100 a.u.

Set 2 — method: RNA Bind-n-Seq; molecule type: RNA; medium: in vitro; tested at: not given; setting: RNA with constant flanks, ends assumed; baseline: input RNA pool; reading: higher = stronger binding
Target: RING finger protein unkempt homolog, zinc fingers 1-6, GST-SBP tag (UNK, Homo sapiens, UniProt Q9C0B0, residues 30-357)
Target sequence (chain): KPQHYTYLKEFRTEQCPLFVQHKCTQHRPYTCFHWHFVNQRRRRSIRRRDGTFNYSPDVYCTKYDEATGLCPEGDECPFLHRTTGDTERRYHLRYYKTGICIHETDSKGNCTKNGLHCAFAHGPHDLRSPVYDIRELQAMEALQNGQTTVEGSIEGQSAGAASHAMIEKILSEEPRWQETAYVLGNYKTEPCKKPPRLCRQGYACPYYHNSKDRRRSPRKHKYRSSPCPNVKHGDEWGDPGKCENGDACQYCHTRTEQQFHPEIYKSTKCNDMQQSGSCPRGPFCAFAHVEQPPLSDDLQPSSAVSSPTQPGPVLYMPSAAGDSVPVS
The bound/input enrichment of `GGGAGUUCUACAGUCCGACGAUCUAUGUAUAUCUCAAGCAAACCAAAAUGCAAUCUUCUGCUUUGUUCUGUUCUAAAUCAUUGCCGUUAUAUCUUUCUGAAACCAUUUUGCAUUUAGUUGAAAUUGUCAGUAUUUAUGCUUUUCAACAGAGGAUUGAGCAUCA` is reported as 0.194 ratio.
With `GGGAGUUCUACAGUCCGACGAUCGCAGAAUUUGCUGAACUAAAAACACAAAUAGAGAAAAUGAGACUAGAUUACCAACACGAAACCGAAAAUUUGCAGAAUCAACAAGACUCUGAACGGGCUGCCCAUGCUAAAGAGAUGGAACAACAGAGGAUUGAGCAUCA` the bound/input enrichment was 2.47 ratio.
With `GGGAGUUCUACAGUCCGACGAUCGCUCACUUCGACCUUGCCUUGGCACGGUCUGCUAAACUACGAAACCCAAAAAAUGACCUCCCCGUAUUGCAUCUCUCUGACCUGAUUCGAAUGGCAUUCAUGGCUGCAACUGAUCAUAGCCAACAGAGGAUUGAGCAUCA` the bound/input enrichment was 0.189 ratio.
`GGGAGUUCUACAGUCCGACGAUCCUUAAUGUUUCAUAAGGAGUAAAUUCUGGCAACCAUGUUUCUUGACUUCAUCUACGGUAUACCGAGCAUAAGGAAUGACAGCAAUUUAAUAUGUACAGGUAGAUAAAUAACCAGCAUCUUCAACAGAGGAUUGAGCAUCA` gave a bound/input enrichment of 0.226 ratio.
The bound/input enrichment of `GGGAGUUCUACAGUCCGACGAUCGAGGAAGAGAAUGCUGUUUUAAAGUUCCCUGAGCAGGCAGGGACCCUGCAGAAUGCAACUACCCGCAGCUCCCUGACAGCACAUCUCAGAAGCCUCUCCAAAGGCGAAUCCCCUGUGGCUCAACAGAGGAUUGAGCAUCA` is reported as 0.0949 ratio.
The bound/input enrichment of `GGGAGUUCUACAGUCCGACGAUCGAUGUGGCAGCAAGAAACUCAAAUGUGCAUUUGUAACUGAAUUGAACACUUGUCAUGCUGCCGAUGCCAGCCCAUCAAUAGUAGAGCUUAUGAGACUCAUUUAAACUGUCUUUGGUUUAACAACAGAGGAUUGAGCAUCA` is reported as 0.111 ratio.
`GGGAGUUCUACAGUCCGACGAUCGACAUUACCACUAUUAAACUUCUCAAUGAAACUAGAGACAUGUUGGAAAGCCCAGAUUUCCGUACAGUUUUGAAUACCUGUUUAAACCGAGGUUUUAGUAGACUUCUAGACAAUAUGGCUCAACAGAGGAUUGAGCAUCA` has a bound/input enrichment of 4.99 ratio.
`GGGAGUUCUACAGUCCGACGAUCUUGGAUGGGGCUUCUUCUCUUUAGGUUUGUGUUUGCCCUCCCGCCUGCUUCUGGUUUGUAACCCGCACAGUCCCGCCACUCAGCACACUCAGUAUUACCGUGGAGCUGUGGGGUUCUUGCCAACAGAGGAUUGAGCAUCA` gave a bound/input enrichment of 1.34 ratio.

Set 3 — method: universal PBM; molecule type: double-stranded DNA, one strand shown; medium: in vitro; tested at: not given; reading: higher = stronger binding
Target: Sal-like protein 4, full length isoform B (SALL4, Homo sapiens, UniProt Q9UJQ4-2, residues 1-616)
Setting: 8-mer, flanks averaged, mean of replicates
`ATAAGTGA` has an E-score of 0.279.
With `ACACTACA` the E-score was 0.211.
For `CCGTCTGC`, the E-score was -0.256.
With `GTTGCTAA` the E-score was 0.1.
The E-score of `AGCTCACA` is reported as 0.0175.
`CGAAAACA` has an E-score of 0.0194.
With `ACATAAGG` the E-score was 0.214.
For `ATGTGCAG`, the E-score was 0.114.
`ATAAACAG` has an E-score of 0.242.
`AGAATGAG` has an E-score of 0.0474.
For `CTCGTAAG`, the E-score was 0.0513.
`ATGGGCTA` gave an E-score of 0.0926.
The E-score of `CTCCTCCC` is reported as -0.342.
`ATTAGGGC` gave an E-score of 0.0813.
The E-score of `AAATTGGT` is reported as 0.123.
For `CAGAGACC`, the E-score was -0.189.
With `CGGTCAGA` the E-score was -0.147.
`ATGGAAAC` has an E-score of 0.156.
For `CAGAAGAC`, the E-score was 0.00228.
`AAGTCTCA` has an E-score of 0.0721.
The E-score of `ACTCAGAC` is reported as -0.0638.
The E-score of `CCGTTTGC` is reported as -0.235.
`TGAGGACA` has an E-score of 0.0179.
`CCGGTGCC` gave an E-score of -0.372.

Set 4 — method: RNA Bind-n-Seq; molecule type: RNA; medium: in vitro; tested at: 365 nM; baseline: no-protein control; reading: higher = stronger binding
Target: RNA binding protein fox-1 homolog 2, RRM domain, GST-SBP tag (RBFOX2, Homo sapiens, UniProt O43251-10, residues 100-194)
Setting: natural RNA segment, single round, ends assumed
`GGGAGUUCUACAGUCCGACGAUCUGAAUCCAUUUUUAUAGAAUUUUUUUCCACUGUAACUUGACCUAUAUUAUGCAAGAAAAUCCCAAAAAUAUGUUUUAAGGGAGACUACACAGACCUUGUGAUUUGGUCUGUGGAAUUCUCGGGUGCCAA` — result for “RBNS enrichment (R)”: 0.754.
Under “RBNS enrichment (R)”, `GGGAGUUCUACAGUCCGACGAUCUUUCCACAGCAAAGAAUAUUUGAUAAUGGUUGCACUUAUCUUCAGUACAGGCUAGAAAAGAGUUCUCAACCAGGCUUAACUGGAGUGGUCUCAGAAAGCCAUCAACAGGCUGGAAUUCUCGGGUGCCAA` is recorded as 0.431.
For `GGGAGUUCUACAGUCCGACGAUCAAACCUUAUUAGCAAAUCUUUAGAUUCUGACUUAGCCAGAGCAUCUGAGUGUUCAAGUACAGUUUUACAGUGGCUAAGGUUGUCUCUUGAUCUUUUUUCUCCGUUGUGUGUGGAAUUCUCGGGUGCCAA`, “RBNS enrichment (R)” read 0.461.
Under “RBNS enrichment (R)”, `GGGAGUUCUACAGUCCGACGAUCAUAUUAAGCAGGUAUUAGAUUUAGGAAAACCUUUCCAUUUCUUAAAGUAUUAUCAAGUGUCAAGAUCAGCAAGUGUCCUUAAGUCAAACAGGUUUUUUUUGUUGUUGUUUUGGAAUUCUCGGGUGCCAA` is recorded as 1.51.
`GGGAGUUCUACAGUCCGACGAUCUGUGUGGAGGUGGCGGGAGGGGUCAGUGACUCUGGGGGUCUCCUCAGUGACCCCCAUACCUCAUCAUGAACCCUUGGGUAGCUUGAUUCUGCCUACCAUCCAGGAAAACUUGGAAUUCUCGGGUGCCAA`: “RBNS enrichment (R)” 0.624.
`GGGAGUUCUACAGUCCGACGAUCGGAUGAGAGAAGCCAGAGCAAGCAGCUCCCCCACCCUCGGCACAUCCCACCUCCCUCGCUCGCUAGUCUCGGCCGGACUUGGAAGACACUGAGAAUGUCCCCCCCAAUGGUGGAAUUCUCGGGUGCCAA`: “RBNS enrichment (R)” 0.395.
`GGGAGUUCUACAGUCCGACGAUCUCUUUAGGCAGCUCUGCCUUAACCCAGGUUUCGUGUAAGAAACUUAACCUUCUCCCUUCCUACCAAUUUUUGUGUGAUCUUUUAGAAAAUAAAUAUUUCUGACAUUAAUGUGGAAUUCUCGGGUGCCAA`: “RBNS enrichment (R)” 0.464.
For `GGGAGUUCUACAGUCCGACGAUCGUGGUAUAUCUGUCCCUAUUAAAUAAGUGUUGUUUUCUCCUCUUUAAUAUUGCUGUGAACAGUGGUGCCCAUUGUAGCAUAUGUUUGAUUUUUUUUUAUUAUUUCAUAAGUGGAAUUCUCGGGUGCCAA`, “RBNS enrichment (R)” read 0.86.
Under “RBNS enrichment (R)”, `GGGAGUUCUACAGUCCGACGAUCAUUGGCCUGUGUCCGCCACUUGGAGUGCCCCAAAGGGGGCUUCUAACCAUUCCUUCCUCCAUCAGCCCCCAGCUUUUUUUCCUGGUAUCUGAGGUCCCAGGAGGAGGCUCUGGAAUUCUCGGGUGCCAA` is recorded as 0.64.
